Published values pooled from the literature.
Lines come from different studies, so protocols differ. Values joined by “and” are separate records of one study, mostly repeats; a detail may differ. Numbers after ± are the reported error.

| SMILES | tested on | test | test system | setting | scale | quantity | result |
| --- | --- | --- | --- | --- | --- | --- | --- |
| C[C@H]1C[C@H]2CSC(N)=N[C@@]2(c2nc(NC(=O)c3ccc(OC(F)F)cn3)cs2)CO1 |  | item: total Aβ | healthy adults, plasma | 400 mg single dose, 24 h post-dose | reference: placebo | percent change from baseline | -58.2% |
| CN[C@@H]1COc2c(S(=O)(=O)NC(=O)Nc3c4c(cc5c3CCC5)CCC4)cnn2C1 |  | item: IL-1β | human participants, whole blood ex vivo | 1800 mg single dose, 336 h, together with: LPS/ATP | reference: baseline | inhibition | 40.9% |
| C[C@H](Oc1ccc(Br)cc1-c1ccon1)C(=O)O |  | peak grip force, handgrip dynamometry | healthy human | 100 mg, SAD |  | difference from placebo | -1.95 kg |
| O=S(=O)(NCCNC/C=C/c1ccc(Br)cc1)c1cccc2cnccc12 |  |  | mouse zygotes | 20 µM, 120 h post-hCG |  | embryos reaching 4-cell | 0% and 5% |
| N#Cc1ccn2c(-c3ccncc3)c(-c3ccc(F)cc3)nc2c1 |  | kinase binding, competitor, MIB/MS competition, item: PBS2 | Candida albicans cell lysate | 100 nM | reference: DMSO | log2 fold change | -0.435 |
| Nc1nc2cc(-c3ccc4ncc(C(=O)N5CCOCC5)n4c3)ccc2o1 |  | IHC, item: phospho-S6 Ser235/236 | advanced solid tumour patients, skin biopsy | 200 mg or higher, sample A patients |  | pS6 level | decreased |
| CN1CC(Oc2cnc(C#N)cc2-c2ccn3nc(NC(=O)C4CC4)cc3c2)C1 |  |  | Rag2-/- mouse, anti-CD40 colitis | dose not given, day 7 |  | liver pathology | decreased |
| C[C@@H]1COCCN1c1cc([C@]2(O)C[C@H]3CC[C@@H](C2)O3)c2cnn(-c3cc[nH]n3)c2n1 |  |  | CW-2 colon xenograft mice | 10 mg/kg once daily for 7 days, day 14 |  | tumour growth inhibition | 68.4 ± 4.9% |
| COc1cc(Nc2ncc3c(n2)-c2ccc(Cl)cc2C(c2c(F)cccc2OC)=NC3)ccc1C(=O)O |  |  | mouse, NB-1643 neuroblastoma xenograft | oral, 20.8 mg/kg, day 14 | reference: vehicle | relative tumour volume T/C | 0.41 |
| CC(C)NCC(O)c1ccc(O)c(O)c1 (stereo not drawn) |  |  | ventricular cardiomyocytes, C57BL/6 mouse | dose not given, 0.536 s |  | sarcomere length | 1.49 µm |
| Oc1nc2nonc2cc1Nc1c(F)c(F)c(F)c(F)c1F |  |  | obese C57BL/6J mice, Western diet 19 weeks | oral gavage, 130 mg/kg/day, fasted |  | serum glucose and insulin | decreased |
| CCN1CCN(Cc2ccc(Nc3ncc(F)c(-c4cc(F)c5nc6n(c5c4)[C@H](C)CCC6)n3)nc2)CC1 |  |  | human advanced solid tumours | 300 mg, phase Ia monotherapy RECIST 1.1 |  | partial response | 0% |
| O=C(O)CNC(=O)Cc1ccccc1 |  |  | ventricular cardiomyocytes, C57BL/6 mouse | dose not given, 0.66 s |  | sarcomere length | 1.72 µm |
| O=C(COc1ccc(Cl)cc1)NC12CC(c3nnc([C@H]4C[C@@H](OC(F)(F)F)C4)o3)(C1)C2 |  | item: CHAC1 | PBMC ex vivo stimulated, human ALS patients | 200 mg, D7 predose | reference: baseline | mRNA level change | -82.1% |
| FC(F)(F)Oc1cccc(-c2ccnc3[nH]c(C(F)(F)F)nc23)c1 |  |  | GAN diet MASH mice | 300 mg/kg, 31 days | reference: GAN control | body weight | no effect |
| CCc1c(C)nc(-c2ccc(Cl)s2)nc1Nc1ccc(CC(=O)O)cc1 |  |  | mice, chronic ethanol plus binge, liver | intraperitoneal, 0.3 mg/kg daily, ethanol diet 4 weeks, dosed last two | reference: vehicle | Oil Red O staining | decreased |
| c1ccc(-c2n[nH]cc2-c2ccnc3ccccc23)nc1 |  | kinase binding, competitor, MIB/MS competition, item: SAK1 | Candida albicans cell lysate | 100 nM | reference: DMSO | log2 fold change | 1.25 |
| CC(C)[C@H](C(=O)Nc1ccc(C(=O)NO)cc1)c1ccccc1 |  | volumetric MRI | human, left IAC schwannoma | dose not given, day 224 | reference: baseline | tumour volume change | 60% |
| Cc1noc(C)c1-c1cc(C(O)(c2ccccn2)c2ccccn2)c2nc(C3CC3)[nH]c2c1 |  | item: HEXIM1 expression | human, peripheral blood | 6 mg, day 8, 1599 study |  | maximum induction | 94% |
| N#Cc1ccc2c(c1)[C@H]1CCCN(C(=O)c3ccc4[nH]cnc4c3)[C@H]1C2 |  |  | human, plasma | 240 mg, day 15, 360 h | reference: placebo and baseline | change in fasting insulin | -17.2% |

| SMILES | tested on | test | test system | setting | scale | quantity | result |
| --- | --- | --- | --- | --- | --- | --- | --- |
| CCOC(=O)CCNc1cc(N2CCc3ccccc3CC2)nc(-c2ccccn2)n1 | HBL-1 |  |  | 0.5 µM, 120 h |  | viability | 111% |
| Cn1cc(-c2ccc(-c3cncc(Cl)c3N3CCC4(CCNC4=O)CC3)cc2)cn1 | COLO 205 | microarray, item: SDC4 |  | concentration not given, 6 h, gene set Syndecan-4 | reference: untreated cells | fold change in expression | 2.9 |
| C[C@H](NC(=O)c1c(C(F)F)nn(C)c1Oc1cccc(C(F)(F)F)c1)c1ccc(C(=O)O)cc1 |  | irRECIST best overall response | patients with advanced tumours | 250 mg |  | patients not evaluable or unknown | 37.5% |
| C[C@H]1O[C@@H](O[C@H]2CC[C@@]3(C)[C@@H](CC[C@]4(C)[C@@H]3C=C[C@]35OC[C@@]6(CCC(C)(C)C[C@H]63)[C@@H](O)C[C@]54C)[C@]2(C)CO)[C@H](O)[C@@H](O[C@@H]2O[C@H](CO)[C@@H](O)[C@H](O)[C@H]2O)[C@H]1O |  |  | chronic-plus-binge ethanol-fed mice, liver | dose not given, high dose | reference: area | Oil Red O area | 11% and 8.57% and 4.87% and 3.97% |
| Cn1cc(Nc2nc(N)nc(-c3cccc(-n4ccc5cc(C6CC6)cc(F)c5c4=O)c3CO)n2)cn1 |  | CD63 upregulation, anti-IgE-induced | human, multiple ascending dose, whole blood basophils ex vivo | 300 mg twice daily, day 14, 1 h |  | inhibition | 94.8% |
| O=C(O)CNC(=O)C(CS)Cc1ccccc1 (stereo not drawn) |  | inhibitor, LC-MS/MS, item: Met- or Leu-enkephalin | mouse striatal brain slices | 10 µM, 20 min, together with: 50 mM KCl |  | extracellular enkephalin concentration | 377 pM and 886 pM and 567 pM and 1640 pM and 524 pM and 1090 pM and 110 pM and 497 pM |
| Cc1c(C)n(Cc2cccc(OC(C)(C)C(=O)O)c2)c2ccc(C(=O)N[C@@H](C)c3ccc(C(C)(C)C)cc3)cc12 |  | indirect calorimetry | lean mice | dose not given, average over 72 h, end of treatment |  | locomotor activity | 1050 ± 585 counts/20 min |
| NC(=O)c1cnc2[nH]ccc2c1N[C@@H]1[C@@H]2CC3C[C@H]1C[C@@](O)(C3)C2 |  | CD4+ CD28+ naive T cells, flow cytometry | Caucasian humans, peripheral blood | 20 mg single dose | reference: baseline | percent change | -1.47% |
| CN(C)C(=O)c1cc2cnc(Nc3ccc(N4CCNCC4)cn3)nc2n1C1CCCC1 |  | RNA-seq GSEA, item: HALLMARK_HEME_METABOLISM | MB002 tumour | concentration not given, in vivo | reference: vehicle, direction not given | GSEA enrichment score | -0.267 |
| CCCCCCCCCCCCCCCc1cccc(O)c1C(=O)O | HBL-1 |  |  | 0.5 µM, 120 h |  | viability | 128% |
| O=C(OC(C(F)(F)F)C(F)(F)F)N1CCN(Cc2cccc(Oc3ccccc3)c2)CC1 |  | PET | rhesus monkey, frontal cortex | intravenous, 0.1 mg/kg, pretreatment blocking, together with: [18F]T-401 |  | tracer distribution volume | 7.2 mL/cm3 |
| CC[C@H](C)[C@H](NC(=O)[C@H](C)NC(=O)CNC(=O)[C@H](Cc1ccccc1)NC(=O)[C@H](CC(N)=O)NC(=O)[C@H](CC(N)=O)NC(=O)[C@H](CO)NC(=O)[C@H](CO)NC(=O)[C@H](Cc1c[nH]cn1)NC(=O)[C@@H](NC(=O)[C@H](CC(C)C)NC(=O)[C@H](Cc1ccccc1)NC(=O)[C@H](CC(N)=O)NC(=O)[C@H](C)NC(=O)[C@H](CC(C)C)NC(=O)[C@H](CCCNC(=N)N)NC(=O)[C@H](CCC(N)=O)NC(=O)[C@@H](NC(=O)[C@H](C)NC(=O)[C@@H]1CSSC[C@H](NC(=O)[C@@H](N)CCCCN)C(=O)N[C@@H](CC(N)=O)C(=O)N[C@@H]([C@@H](C)O)C(=O)N[C@@H](C)C(=O)N[C@@H]([C@@H](C)O)C(=O)N1)[C@@H](C)O)C(C)C)C(=O)N[C@@H](CC(C)C)C(=O)N[C@@H](CO)C(=O)N[C@@H](CO)C(=O)N[C@H](C(=O)N[C@@H](CC(N)=O)C(=O)N[C@H](C(=O)NCC(=O)N[C@@H](CO)C(=O)N[C@@H](CC(N)=O)C(=O)N[C@H](C(=O)N[C@@H](Cc1ccc(O)cc1)C(N)=O)[C@@H](C)O)C(C)C)[C@@H](C)O |  | live/dead staining | isolated mouse islets | 10 µM, 24 h |  | viability | 61% |
| CC(C)[C@H](NC(=O)[C@H](Cc1ccc(O)cc1)NC(=O)[C@H](Cc1ccc(O)cc1)NC(=O)[C@@H]1CCCN1C(=O)[C@H](CCC(=O)O)NC(=O)[C@H](CCC(=O)O)NC(=O)[C@H](Cc1c[nH]c2ccccc12)NC(=O)[C@@H]1CCCN1C(=O)[C@@H](NC(=O)[C@H](CCC(N)=O)NC(=O)c1ccc2c(c1)C(=O)OC21c2ccc(O)cc2Oc2cc(O)ccc21)C(C)C)C(=O)N[C@H](C(=O)N[C@@H](CCCCN)C(=O)N[C@@H](CCCCN)C(=O)N[C@@H](CO)C(=O)N[C@@H](CO)C(=O)NCC(=O)NCC(N)=O)C(C)C |  | nerve trajectory | human head and neck surgery, nerves | 500 mg, very much improved | reference: white light | share of responses | 0% |
| N#Cc1ccc2c(-c3ccncc3)c(-c3ccc(F)cc3)nn2c1 |  | kinase binding, competitor, MIB/MS competition, item: KIN2 | Candida albicans cell lysate | 1 µM | reference: DMSO | log2 fold change | -0.493 |
| O=C(O)/C=C/c1nccc2c3ccccc3n(Cc3ccc(Br)cc3)c12 |  |  | mouse, acute hyperuricaemia model | oral, 2 mg/kg |  | decrease in serum uric acid | 13.1% |
| COc1nnc2ccc(N3CCC(c4ccc(OCCN5CCN(C)C(=O)[C@H]5C)cc4)CC3)nn12 |  |  | human patients | 40 mg once daily, above baseline variability |  | time above HEXIM1 threshold | 7.34 h |
| CCOCc1nc(O)c(-c2nnc(Cc3ccc(Cl)cn3)o2)c(O)c1-c1c(OC)cccc1OC |  |  | anaesthetised rat | intravenous infusion, 10 µg/kg/min for 15 min | reference: baseline | heart rate change | 2.4 ± 0.7% |
| Cc1n[nH]c2ccc(-c3cc(OC[C@@H](N)Cc4ccccc4)cnc3-c3ccoc3)cc12 |  | kinase binding, competitor, MIB/MS competition, item: RIM8 | Candida albicans cell lysate | 100 nM | reference: DMSO | log2 fold change | -0.206 |
| CCN(Cc1nc2c(N)nc3cc(-c4cc[nH]n4)ccc3c2[nH]1)C(C)=O |  | immunohistochemistry, item: PD-L1+ immune cells | patients with advanced solid tumours, injected tumour lesions | dose not given, monotherapy |  | patients with increased cells | 50% |

Repeated from above:
| SMILES | tested on | test | test system | setting | scale | quantity | result |
| --- | --- | --- | --- | --- | --- | --- | --- |
| CN[C@@H]1COc2c(S(=O)(=O)NC(=O)Nc3c4c(cc5c3CCC5)CCC4)cnn2C1 |  | item: IL-1β | human participants, whole blood ex vivo | 1800 mg single dose, 336 h, together with: LPS/ATP | reference: baseline | inhibition | 40.9% |
| C[C@H](Oc1ccc(Br)cc1-c1ccon1)C(=O)O |  | peak grip force, handgrip dynamometry | healthy human | 100 mg, SAD |  | difference from placebo | -1.95 kg |
| O=S(=O)(NCCNC/C=C/c1ccc(Br)cc1)c1cccc2cnccc12 |  |  | mouse zygotes | 20 µM, 120 h post-hCG |  | embryos reaching 4-cell | 0% and 5% |
| N#Cc1ccn2c(-c3ccncc3)c(-c3ccc(F)cc3)nc2c1 |  | kinase binding, competitor, MIB/MS competition, item: PBS2 | Candida albicans cell lysate | 100 nM | reference: DMSO | log2 fold change | -0.435 |
